# Measurements pooled from the literature.
# A part holds a random share of what one study measured. Values joined by “and” are separate records of one study, mostly repeats; a detail may differ.
# Sequence of UniProt O14757 (whole entry, looked up): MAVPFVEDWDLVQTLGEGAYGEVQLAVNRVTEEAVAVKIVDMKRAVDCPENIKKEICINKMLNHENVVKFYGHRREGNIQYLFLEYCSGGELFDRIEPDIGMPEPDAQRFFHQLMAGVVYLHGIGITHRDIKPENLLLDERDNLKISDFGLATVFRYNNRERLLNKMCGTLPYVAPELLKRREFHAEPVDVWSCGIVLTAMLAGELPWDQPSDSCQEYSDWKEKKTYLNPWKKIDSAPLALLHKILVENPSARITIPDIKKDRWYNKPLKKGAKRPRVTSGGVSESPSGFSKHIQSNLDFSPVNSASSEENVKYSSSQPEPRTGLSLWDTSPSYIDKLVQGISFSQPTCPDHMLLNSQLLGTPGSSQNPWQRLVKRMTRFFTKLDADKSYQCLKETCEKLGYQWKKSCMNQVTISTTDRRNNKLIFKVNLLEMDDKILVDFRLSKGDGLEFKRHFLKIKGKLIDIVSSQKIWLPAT
# Sequence of UniProt P0DMS8 (whole entry, looked up): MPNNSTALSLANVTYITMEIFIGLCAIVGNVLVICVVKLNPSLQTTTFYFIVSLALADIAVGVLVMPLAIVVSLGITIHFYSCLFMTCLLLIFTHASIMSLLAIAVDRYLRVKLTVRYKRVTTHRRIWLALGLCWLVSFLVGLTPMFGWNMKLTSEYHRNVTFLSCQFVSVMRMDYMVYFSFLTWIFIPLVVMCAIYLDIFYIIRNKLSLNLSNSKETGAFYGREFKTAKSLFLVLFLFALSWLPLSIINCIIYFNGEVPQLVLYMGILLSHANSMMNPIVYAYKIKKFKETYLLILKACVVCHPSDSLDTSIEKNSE

# Sample 1
# SMILES: CC[C@H](C)[C@H](NC(=O)[C@H](CCCCN)NC(=O)[C@H](CCC(N)=O)NC(=O)[C@H](Cc1ccccc1)NC(=O)[C@@H](NC(=O)[C@H](CCCCN)NC(=O)[C@H](CCCCN)NC(=O)[C@H](CC(C)C)NC(=O)[C@H](C)NC(=O)[C@H](CC(N)=O)NC(=O)[C@@H](N)CC(C)C)C(C)C)C(=O)N[C@@H](Cc1c[nH]cn1)C(=O)N[C@@H](CCC(=O)O)C(=O)N[C@@H](C)C(N)=O
# Time: 18 h
# Temperature: 37 °C
organism,test,test system,MIC [µM]
Escherichia coli,,"CCARM 1229, resistant",16
Pseudomonas aeruginosa,broth microdilution,ATCC 27853,16
Pseudomonas aeruginosa,,"4891, resistant",32
Escherichia coli,broth microdilution,ATCC 25922,16
Klebsiella pneumoniae,broth microdilution,ATCC 13883,64
Listeria monocytogenes,broth microdilution,KCTC 3710,32
Staphylococcus aureus,,"USA300, resistant",32

# Mixed results
Structure (SMILES),target or system,test,test system,setting,how to read,quantity,result
CN[C@@H]1C[C@H]2O[C@@](C)([C@@H]1OC)n1c3ccccc3c3c4c(c5c6ccccc6n2c5c31)C(=O)NC4,"CHEK1 (Homo sapiens, UniProt O14757)",KINOMEscan competition binding,,0.5 µM,relative to: control,remaining binding,0%
CCOP(=O)(OCC)OCc1ccc(S(=O)(=O)CC(C[C@H]2O[C@@H]3C[C@]4(C)CC[C@H]5[C@H](C)CC[C@@H]([C@H]2C)[C@@]35OO4)C[C@H]2O[C@@H]3C[C@]4(C)CC[C@H]5[C@H](C)CC[C@@H]([C@H]2C)[C@@]35OO4)cc1,Plasmodium berghei,,"ANKA, infected mice","oral, 54 mg/kg single dose, 24 h post-infection",,mean survival time,14.8 days
CN1CC[C@]23c4c5ccc(O)c4O[C@H]2[C@@H](O)C=C[C@H]3[C@H]1C5,HEK293,"GTPγS binding, agonist",,,relative to: DAMGO,relative intrinsic efficacy,0.18
C[C@H]1[C@@H](CC(C[C@H]2O[C@@H]3C[C@]4(C)CC[C@H]5[C@H](C)CC[C@@H]([C@H]2C)[C@@]35OO4)CS(=O)(=O)c2ccc(COC(=O)N(C)C)cc2)O[C@@H]2C[C@]3(C)CC[C@H]4[C@H](C)CC[C@@H]1[C@@]24OO3 (some centres unmarked),Plasmodium berghei,,"ANKA, infected mice","oral, 72 mg/kg single dose",,mean survival time,23 to 25 days and 23 days
CNC(=O)[C@H]1O[C@@H](n2cnc3c(NCc4cccc(I)c4)nc(Cl)nc32)[C@H](O)[C@@H]1O,"ADORA3 (Homo sapiens, UniProt P0DMS8)",Motulsky-Mahan competition kinetics,,together with: [3H]PSB-11,relative to: no GTP over 1 mM GTP,dissociation rate ratio,≤ 8 fold
C[C@H]1[C@@H](CC(C[C@H]2O[C@@H]3C[C@]4(C)CC[C@H]5[C@H](C)CC[C@@H]([C@H]2C)[C@@]35OO4)CS(=O)(=O)Cc2ccc(F)cc2)O[C@@H]2C[C@]3(C)CC[C@H]4[C@H](C)CC[C@@H]1[C@@]24OO3 (some centres unmarked),Plasmodium berghei,,"ANKA, infected mice","oral, 54 mg/kg single dose, 24 h post-infection",,mean survival time,14.6 days
COC[C@@H](Cc1ccc(OC)c(OC)c1)[C@@H](COC)Cc1ccc(OC)c(OC)c1,Hepatitis C virus,"viral replication, measured: HCV negative-strand RNA","Huh-7 with HCV genotype 2a replicon, genotype 2a",48 h,,EC50,250 µM

# A few entries again (sample 1):
organism,test,test system,MIC [µM]
Pseudomonas aeruginosa,broth microdilution,ATCC 27853,16
Escherichia coli,,"CCARM 1229, resistant",16
